Published values gathered from unrelated publications.
Each line is one published result; not all experiments were run side by side. “And” joins repeats or separate records; there may be more than shown. Numbers after ± are the reported error.
GLP1R: Glucagon-like peptide 1 receptor (GLP1R, Homo sapiens, UniProt P43220)
TRIM24 PHD-bromodomain: Transcription intermediary factor 1-alpha, PHD-bromodomain (TRIM24, Homo sapiens, UniProt O15164)
GUK1: GUK1 (Homo sapiens, UniProt Q16774)

SMILES | target | assay | system | conditions | how to read | endpoint | value
C#CCOc1ccccc1N1CCN(C(=O)c2cccc(S(=O)(=O)n3cnc(C4CC4)n3)c2)CC1 | Glutathione S-transferase P, Y8 variant (GSTP1, Homo sapiens, UniProt P09211) | label-free LC-MS/MS chemoproteomics | COLO 205 | 100 µM, 4 h, 37 °C |  | spectral count | 45
Nc1ccc(C(=O)O)cc1 | BEST1, with wild-type BEST1 (Homo sapiens, UniProt O76090, Q293K) | ion current, whole-cell patch clamp | HEK293 co-expressing mutant and wild-type | concentration not given, voltage 100 mV |  | current density | 16.5 pA/pF and 25.4 pA/pF and 15.8 pA/pF and 27.6 pA/pF and 42.5 pA/pF and 9.63 pA/pF
O=C1CCC(N2C(=O)c3cccc(NCCCCNC(=O)c4cccc(C#Cc5cc(NC(=O)Nc6ccnc(Cl)c6)ccn5)c4)c3C2=O)C(=O)N1 (centres unmarked) | SWI/SNF-related matrix-associated actin-dependent regulator of chromatin subfamily A member 4, residues 537-1393 (SMARCA4, Homo sapiens, UniProt P51532) | ITC |  | concentration not given |  | binding stoichiometry | 2.42
C=CC(=O)N1CCC(COCC(=O)N2CCN(c3nc(-c4cnc(N)nc4C(F)F)nc(N4CCOC[C@@H]4C)n3)CC2)CC1 | STK36 (Homo sapiens, UniProt Q9NRP7) | KINOMEscan |  | 1 µM |  | remaining binding | 98%
C=C1CN(S(=O)(=O)c2ccc(C)cc2)CCCN(Cc2ccccc2)CCCN(S(=O)(=O)c2ccc(C)cc2)C1 | CD4 signal peptide FLuc |  | HEK293 reporter-transfected | concentration not given, 3 h, unit not given, with: cycloheximide | reference: mock | FLuc activity | 0.979
O=c1nc(SCc2cc(F)cc(C(F)(F)F)c2)nc(SCc2ccc3sccc3c2)[nH]1 | TOP2A (Homo sapiens, UniProt P11388) | DNA relaxation |  | 15.6 µM, replicate 2 |  | relaxed DNA | 46.6%
CC[C@H](C)[C@H](NC(=O)[C@H](Cc1ccccc1)NC(=O)[C@H](CCC(=O)O)NC(=O)[C@H](CCCNC(=N)N)NC(=O)[C@H](C)NC(=O)[C@H](C)NC(=O)[C@H](CCC(N)=O)NC(=O)[C@H](CCC(=O)O)NC(=O)[C@H](CCC(=O)O)NC(=O)[C@H](CC(C)C)NC(=O)[C@H](Cc1ccc(O)cc1)NC(=O)[C@H](CO)NC(=O)[C@H](CO)NC(=O)[C@H](CCCCNc1c(NCCCCCN(O)C(=O)CCC(=O)NCCCCCN(O)C(=O)CCC(=O)NCCCCCN(O)C(C)=O)c(=O)c1=O)NC(=O)[C@H](CC(=O)O)NC(=O)[C@H](CO)NC(=O)[C@@H](NC(=O)[C@H](Cc1ccccc1)NC(=O)[C@@H](NC(=O)CNC(=O)[C@H](CCC(=O)O)NC(=O)[C@H](C)NC(=O)CCc1cnc[nH]1)[C@@H](C)O)[C@@H](C)O)C(=O)N[C@@H](C)C(=O)N[C@@H](Cc1c[nH]c2ccccc12)C(=O)N[C@@H](CC(C)C)C(=O)N[C@H](C(=O)N[C@@H](CCCCNc1c(NCCCCCN(O)C(=O)CCC(=O)NCCCCCN(O)C(=O)CCC(=O)NCCCCCN(O)C(C)=O)c(=O)c1=O)C(=O)NCC(=O)N[C@@H](CCCNC(=N)N)C(=O)N[C@@H](CCCCNC(=O)COCCOCCNC(=O)COCCOCCNC(=O)CC[C@H](NC(=O)CCCCCCCCCCCCCCCCC(=O)O)C(=O)O)C(=O)O)C(C)C | GLP1R | agonist, CRE luciferase reporter | BHK cells | Zr-loaded DFO conjugate, with: 1% HSA | reference: parent peptide | fold potency loss | 32.1
Cc1ccc(N2CC(C(N)=O)CC2=O)cc1 (centres unmarked) | TRIM24 PHD-bromodomain | binding, affinity selection mass spectrometry |  |  | reference: other proteins in batch | log fold enrichment | 0.0529
CC[C@H](C)[C@H](NC(=O)[C@H](Cc1ccccc1)NC(=O)[C@H](CCC(=O)O)NC(=O)[C@H](CCCNC(=N)N)NC(=O)[C@H](C)NC(=O)[C@H](C)NC(=O)[C@H](CCC(N)=O)NC(=O)[C@H](CCC(=O)O)NC(=O)[C@H](CCC(=O)O)NC(=O)[C@H](CC(C)C)NC(=O)[C@H](Cc1ccc(O)cc1)NC(=O)[C@H](CO)NC(=O)[C@H](CO)NC(=O)[C@@H](NC(=O)[C@H](CC(=O)O)NC(=O)[C@H](CO)NC(=O)[C@@H](NC(=O)[C@H](Cc1ccccc1)NC(=O)[C@@H](NC(=O)CNC(=O)[C@H](CCC(=O)O)NC(=O)[C@H](C)NC(=O)CCc1cnc[nH]1)[C@@H](C)O)[C@@H](C)O)C(C)C)C(=O)N[C@@H](C)C(=O)N[C@@H](Cc1c[nH]c2ccccc12)C(=O)N[C@@H](CC(C)C)C(=O)N[C@H](C(=O)N[C@@H](CCCNC(=N)N)C(=O)NCC(=O)N[C@@H](CCCNC(=N)N)C(=O)N[C@@H](CCCCNC(=O)COCCOCCNC(=O)COCCOCCNC(=O)CC[C@H](NC(=O)CCCCCCCCCCCCCCCCC(=O)O)C(=O)O)C(=O)NCC(=O)NCC(=O)N[C@@H](CO)C(=O)N[C@@H](CCSC)C(=O)N[C@H](C(=O)N[C@@H](CCCCNc1c(NCCCCCN(O)C(=O)CCC(=O)NCCCCCN(O)C(=O)CCC(=O)NCCCCCN(O)C(C)=O)c(=O)c1=O)C(=O)O)C(C)C)C(C)C | GLP1R | agonist, CRE luciferase reporter | BHK cells | Zr-loaded DFO conjugate, with: 1% HSA | reference: parent peptide | fold potency loss | 1.2
O=C(OCc1ccccc1)c1ccc(O)cc1 | CARM1 (Homo sapiens, UniProt Q86X55) | reporter gene, inhibitor | HEK293 |  |  | effective concentration | 160 µM
CCCCC[C@H](O)/C=C/[C@H]1[C@H](O)CC(=O)[C@@H]1C/C=C\CCCC(=O)O | PTGER1 (Homo sapiens, UniProt P34995, H145A) | IP1 accumulation, agonist | AD293 | 1 h, EP1 H145A mutant |  | Emax | 59.6 ± 8.03%
Nc1ncnc2c1ncn2[C@@H]1O[C@H](COP(=O)(O)CP(=O)(O)OP(=O)(O)O)[C@@H](O)[C@H]1O | P2X purinoceptor 1 (P2RX1, Homo sapiens, UniProt P51575, M214A) | saturation binding | HEK293 | 79 nM |  | specific binding | 992 CCPM and 1010 CCPM and 1830 CCPM
CCCCC[C@H](O)/C=C/[C@H]1C(=O)C[C@H](O)[C@@H]1C/C=C\CCCC(=O)O | PTGDR (Homo sapiens, UniProt Q13258, D72N) | agonist |  | 10 µM |  | activation | 91.3%
[Cl-].[Na+] | GUK1 | enzyme activity, NADH-coupled |  | 15 mM |  | reaction velocity | 0.0616 µM/s and 0.0214 µM/s and 0.0195 µM/s
CCCCCCCCCCCCCCCCCCc1ccc(O)cc1 | Albumin (ALB, Bos taurus, UniProt P02769) | van't Hoff analysis |  | concentration not given, 310.15 K |  | binding entropy change | 62.4 J/mol/K
O=C(Nc1cccc2c(=O)cc(-c3nnn[nH]3)oc12)c1ccc(OCCCCc2ccccc2)cc1 | Volume-regulated anion channel subunit LRRC8C, part LRRC8A IL1 chimera (LRRC8C, Homo sapiens, UniProt Q8TDW0, E6A) | ion current, inhibitor, whole-cell patch clamp | HCT116 LRRC8 knockout, transfected | 1 µM, at +100 mV |  | inhibition | 88.2%
O=c1cc(-c2ccc([N+](=O)[O-])cc2)[nH]c2c(-c3ccc(Cl)cc3)c(Cc3ccccc3)nn12 | Cytokine receptor-like factor 3 (CRLF3, Homo sapiens, UniProt Q8IUI8) | thermal stability, binder, thermal proteome profiling | RD, cell lysate | 50 µM, 0.5% DMSO | reference: DMSO vehicle | melting temperature shift | 6.6 °C
C=CC(=O)N1CCC[C@@H](n2nc(-c3ccc(Oc4ccccc4)cc3)c3c(N)ncnc32)C1 | EPHB1 (Homo sapiens, UniProt P54762) |  |  | 10 µM |  | remaining activity | 129%
O=C([O-])CN(CCN(CC(=O)[O-])Cc1cc(CCC(=O)NCCCCCC(=O)NCCCC[C@H](NC(=O)N[C@@H](CCC(=O)O)C(=O)O)C(=O)O)ccc1[O-])Cc1cc(CCC(=O)O)ccc1[O-].[68Ga+3].[OH3+] | FOLH1 (Homo sapiens, UniProt Q04609) | saturation binding | LNCaP |  |  | Bmax | 19.8 µmol/mg
Cc1cc2c(cc1N1C(=O)c3cccc4c(Cl)ccc(c34)C1=O)n(C)c(=O)n2C | TRIM24 PHD-bromodomain | thermal shift |  | 10 µM |  | ΔTm | 0.1 °C
CC[C@H](C)[C@@H]1NC(=O)[C@H]([C@@H](C)O)NC(=O)[C@@H]2CCCN2C(=O)[C@H](CC(C)C)NC(=O)[C@H](Cc2ccc(O)cc2)NC(=O)CSC[C@@H](C(N)=O)NC(=O)[C@H](CC(C)C)NC(=O)[C@@H]2CCCN2C(=O)[C@H](Cc2c[nH]cn2)NC(=O)[C@H](Cc2c[nH]c3ccccc23)NC(=O)[C@H](CC(C)C)NC(=O)[C@H](Cc2c[nH]cn2)NC(=O)CNC(=O)[C@H](C(C)C)NC(=O)CNC(=O)[C@H]([C@@H](C)O)NC1=O | Vacuolar protein sorting-associated protein 29 (VPS29, Homo sapiens, UniProt Q9UBQ0) | binding, ITC |  | 25 °C, protein alone |  | ΔG | -8.4 ± 0.06 kcal/mol
COc1cc(O)c2c(c1)oc(=O)c1c3cc(O)c(O)cc3oc21 | MAL12 (Saccharomyces cerevisiae S288c, UniProt P53341) | fluorescence quenching |  | concentration not given, 310 K |  | number of binding sites | 0.97
CC[C@H](C)[C@H](NC(=O)[C@H](Cc1ccccc1)NC(=O)[C@H](CCC(=O)O)NC(=O)[C@H](CCCNC(=N)N)NC(=O)[C@H](C)NC(=O)[C@H](C)NC(=O)[C@H](CCC(N)=O)NC(=O)[C@H](CCC(=O)O)NC(=O)[C@H](CCC(=O)O)NC(=O)[C@H](CC(C)C)NC(=O)[C@H](Cc1ccc(O)cc1)NC(=O)[C@H](CO)NC(=O)[C@H](CO)NC(=O)[C@@H](NC(=O)[C@H](CC(=O)O)NC(=O)[C@H](CO)NC(=O)[C@@H](NC(=O)[C@H](Cc1ccccc1)NC(=O)[C@@H](NC(=O)CNC(=O)[C@H](CCC(=O)O)NC(=O)[C@H](C)NC(=O)CCc1cnc[nH]1)[C@@H](C)O)[C@@H](C)O)C(C)C)C(=O)N[C@@H](C)C(=O)N[C@@H](Cc1c[nH]c2ccccc12)C(=O)N[C@@H](CC(C)C)C(=O)N[C@H](C(=O)N[C@@H](CCCNC(=N)N)C(=O)NCC(=O)N[C@@H](CCCNC(=N)N)C(=O)N[C@@H](CCCCNC(=O)COCCOCCNC(=O)COCCOCCNC(=O)CC[C@H](NC(=O)CCCCCCCCCCCCCCCCC(=O)O)C(=O)O)C(=O)NCC(=O)NCC(=O)N[C@@H](CO)C(=O)N[C@@H](CCCCNc1c(NCCCCCN(O)C(=O)CCC(=O)NCCCCCN(O)C(=O)CCC(=O)NCCCCCN(O)C(C)=O)c(=O)c1=O)C(=O)NCC(=O)NCC(=O)N[C@@H](CO)C(=O)N[C@@H](CCCCNc1c(NCCCCCN(O)C(=O)CCC(=O)NCCCCCN(O)C(=O)CCC(=O)NCCCCCN(O)C(C)=O)c(=O)c1=O)C(=O)O)C(C)C | GLP1R | agonist, CRE luciferase reporter | BHK cells | Zr-loaded DFO conjugate, with: 1% HSA | reference: parent peptide | fold potency loss | 1.2
Nc1ncnc2c1ncn2[C@@H]1O[C@H](COP(=O)(O)OP(=O)(O)O)[C@@H](O)[C@H]1O | GUK1 | ITC |  | molar ratio 0.9041 |  | ΔH | -1.57 kcal/mol
CC(=C/C(=O)O)/C=C/C=C(\C)C1C=C2C(C)(C)CCCC2(C)O1 (centres unmarked) | Rhodopsin (RHO, Homo sapiens, UniProt P08100, E181K) | immunostaining, refers to: opsin | COS-7 transfected | 0.05 µM, unit not given | reference: surface over total stained cells | plasma membrane localization | 0
NCCCCC(=O)O | SLC6A6 (Homo sapiens, UniProt P31641, Y138A) | binding, microscale thermophoresis |  | 40.3 nM, fitted curve | higher = more binding | fraction bound | 0

For quick reference, copied from above:
SMILES | target | assay | system | conditions | how to read | endpoint | value
Cc1cc2c(cc1N1C(=O)c3cccc4c(Cl)ccc(c34)C1=O)n(C)c(=O)n2C | TRIM24 PHD-bromodomain | thermal shift |  | 10 µM |  | ΔTm | 0.1 °C
CC[C@H](C)[C@H](NC(=O)[C@H](Cc1ccccc1)NC(=O)[C@H](CCC(=O)O)NC(=O)[C@H](CCCNC(=N)N)NC(=O)[C@H](C)NC(=O)[C@H](C)NC(=O)[C@H](CCC(N)=O)NC(=O)[C@H](CCC(=O)O)NC(=O)[C@H](CCC(=O)O)NC(=O)[C@H](CC(C)C)NC(=O)[C@H](Cc1ccc(O)cc1)NC(=O)[C@H](CO)NC(=O)[C@H](CO)NC(=O)[C@H](CCCCNc1c(NCCCCCN(O)C(=O)CCC(=O)NCCCCCN(O)C(=O)CCC(=O)NCCCCCN(O)C(C)=O)c(=O)c1=O)NC(=O)[C@H](CC(=O)O)NC(=O)[C@H](CO)NC(=O)[C@@H](NC(=O)[C@H](Cc1ccccc1)NC(=O)[C@@H](NC(=O)CNC(=O)[C@H](CCC(=O)O)NC(=O)[C@H](C)NC(=O)CCc1cnc[nH]1)[C@@H](C)O)[C@@H](C)O)C(=O)N[C@@H](C)C(=O)N[C@@H](Cc1c[nH]c2ccccc12)C(=O)N[C@@H](CC(C)C)C(=O)N[C@H](C(=O)N[C@@H](CCCCNc1c(NCCCCCN(O)C(=O)CCC(=O)NCCCCCN(O)C(=O)CCC(=O)NCCCCCN(O)C(C)=O)c(=O)c1=O)C(=O)NCC(=O)N[C@@H](CCCNC(=N)N)C(=O)N[C@@H](CCCCNC(=O)COCCOCCNC(=O)COCCOCCNC(=O)CC[C@H](NC(=O)CCCCCCCCCCCCCCCCC(=O)O)C(=O)O)C(=O)O)C(C)C | GLP1R | agonist, CRE luciferase reporter | BHK cells | Zr-loaded DFO conjugate, with: 1% HSA | reference: parent peptide | fold potency loss | 32.1
